Assay results gathered from unrelated publications.
Lines come from different studies, so protocols differ. ± gives the spread as reported.
Cell line: MDA-MB-231

Structure (SMILES) | observed | method | measured | time | notes | IC50
CCOC(=O)C(C(C)=O)=C1Sc2nc3ccc(S(=O)(=O)N4CCCC4)cc3nc2S1 | cell growth or viability | MTT | – | 24 h | – | 10.5 µM
CC(=O)N1N=C(c2ccc(NC(=O)CN3CCN(c4ccc(Cl)cc4)CC3)cc2)CC1c1ccccc1 (stereo not drawn) | cell growth or viability | MTT | – | – | – | 68.3 µM
O=c1[nH]nc(O)c2c(-c3cccc(Cl)c3)c3n(c12)CCn1cccc1-3 | cell growth or viability | MTT | – | 48 h | – | 17.9 µM
COc1ccc(N2CCN(CC(=O)Nc3ccc(C(=O)C=Cc4ccc(Br)cc4)cc3)CC2)cc1 | cell growth or viability | MTT | – | – | – | 43.6 µM
CC(=O)O[C@H]1C(=O)[C@@]2(C)[C@H]([C@H](OC(=O)c3ccccc3)[C@]3(O)C[C@H](OC(=O)[C@H](O)[C@@H](NC(=O)c4ccccc4)c4ccccc4)C(C)=C1C3(C)C)[C@]1(OC(C)=O)CO[C@@H]1C[C@@H]2O | cell growth or viability | MTT | – | – | – | 60 µM
O=C(NO)c1ccc(NC(=O)[C@@H](NS(=O)(=O)c2cccc3ccccc23)c2ccccc2)cc1 | cell growth or viability | MTT | – | 48 h | – | 5.12 µM
COc1ccc(N2CCN(CC(=O)Nc3ccc(C4=NN(C(C)=O)C(c5ccc(C)cc5)C4)cc3)CC2)cc1 (stereo not drawn) | cell growth or viability | MTT | – | – | – | 10.4 µM
COC(=O)c1c(-c2ccccc2C)c2n(c1C(=O)OC)CCn1cccc1-2 | cell growth or viability | MTT | – | 48 h | – | 78.5 µM
NS(=O)(=O)c1ccc(NC(=O)Nc2ccc(F)cc2)cc1 | cell proliferation | flow cytometry cell count | – | 72 h | hypoxia 1% O2 | 23.4 µM
O=C(CN1CCN(c2ccc(Cl)cc2)CC1)Nc1ccc(C(=O)C=Cc2ccc(Cl)cc2Cl)cc1 | cell growth or viability | MTT | – | – | – | 26.4 µM
C[C@@H]1O[C@@H](OC(=O)/C=C/c2ccc(O)cc2)[C@H](O)[C@H](OC(=O)/C=C/c2ccc(O)c(O)c2)[C@H]1O (relative stereo) | cell growth or viability | MTT | – | – | – | 38.6 µM
COC(=O)c1c(-c2ccc(Cl)cc2Cl)c2n(c1C(=O)OC)CCn1cccc1-2 | cell growth or viability | MTT | – | 48 h | – | 85.7 µM
O=C(COc1ccccc1-c1cnc2ccccc2n1)NCCNC(=O)COc1ccccc1-c1cnc2ccccc2n1 | cell growth or viability | MTT | – | – | – | 11 µM
CNC(=O)c1cc(Oc2ccc(NC(=O)Nc3ccc(Cl)c(C(F)(F)F)c3)cc2)ccn1 | cytotoxicity | MTT | – | 24 h | – | 7.61 ± 0.4 µM
COc1ccc(N2CCN(CC(=O)Nc3ccc(C(=O)C=Cc4ccco4)cc3)CC2)cc1 | cell growth or viability | MTT | – | – | – | 8.51 µM
COC(=O)c1c(-c2cc(OC)c(OC)c(OC)c2)c2n(c1C(=O)OC)CCn1cccc1-2 | cell growth or viability | MTT | – | 48 h | – | 75.7 µM
CC1CC(C)CN(c2cc(Nc3ccccc3C(=O)O)c3c4c(onc24)-c2ccccc2C3=O)C1 (stereo not drawn) | cell invasion | Boyden chamber | – | 16 h | – | 30 µM
Cc1ccc2ncn(Cc3cn(Cc4ccc(/C=C/C(=O)NO)cc4)nn3)c(=O)c2c1 | cell growth or viability | MTT | – | 48 h | – | 9.71 µM
CC(=O)c1nn(-c2ccccc2Cl)/c(=N/N=C(\C)c2ccc(NC(=O)c3cccnc3)cc2)s1 | cytotoxicity | MTT | – | 24 h | – | 4.64 ± 0.3 µM
COc1ccc(-c2cc(=O)n3c(ccn3Cc3cn([C@H]4O[C@H](COC(C)=O)[C@@H](OC(C)=O)[C@H](OC(C)=O)[C@@H]4OC(C)=O)nn3)n2)cc1 | cell growth or viability | MTT | – | 72 h | – | 37.6 µM
O=C(CN1CCN(c2ccc(Cl)cc2)CC1)Nc1ccc(C(=O)C=Cc2ccc(Br)cc2)cc1 | cell growth or viability | MTT | – | – | – | 63.4 µM
O=C(COc1ccccc1C1=Nn2c(nnc2-c2ccccc2)SC1)NCCNC(=O)COc1ccccc1C1=Nn2c(nnc2-c2ccccc2)SC1 | cell growth or viability | MTT | – | – | – | 23.3 µM
Cc1ccc(C=CC(=O)c2ccc(NC(=O)CN3CCN(c4ccc(Cl)cc4)CC3)cc2)cc1 | cell growth or viability | MTT | – | – | – | 81.6 µM
O=C(NO)c1ccc(Cn2cc(Cn3cnc4ccc(I)cc4c3=O)nn2)cc1 | cell growth or viability | MTT | – | 48 h | – | 4.56 µM

Structure (SMILES) | observed | method | measured | time | notes | IC50
CC/C(=C(\c1ccccc1)c1ccc(OCCN(C)CCCCCC(=O)NCCCOc2ccc3[nH]cc(CCNC(C)=O)c3c2)cc1)c1ccccc1 | cell survival | MTT | – | day 9 | dosed days 2, 4, 7 | 31.2 µM
O=c1c(-c2ccc(O)cc2)coc2cc(O)ccc12 | cell growth or viability | trypan blue | – | 72 h | – | 179 µM
O=C(/C=C/c1ccc(Cn2cc(Cn3cnc4ccc(I)cc4c3=O)nn2)cc1)NO | cell growth or viability | MTT | – | 48 h | – | 17.4 µM
COC(=O)[C@@H]1Cc2c([nH]c3ccccc23)[C@H](c2ccc(Cl)c(Cl)c2)N1 | cell growth or viability | ATP luminescence | – | – | – | < 10 µM
COC(=O)c1c(-c2ccccc2F)c2n(c1C(=O)OC)CCn1cccc1-2 | cell growth or viability | MTT | – | 48 h | – | 76.1 µM
O=c1cc(-c2ccccc2)oc2cc(O)cc(O)c12 | cell growth or viability | trypan blue | – | 72 h | – | 40 µM
COc1cc2nc(N3CCCN(C)CC3)nc(NC3CCN(Cc4ccccc4)CC3)c2cc1OC | – | in-cell western | H3K9me2 | 48 h | – | 0.5 ± 0.043 µM
O=C(NO)c1ccc(NC(=O)[C@@H](NC(=O)c2ccc(F)cc2)c2ccccc2)cc1 | cell growth or viability | MTT | – | 48 h | – | 4.78 µM
CCn1[c](=[Au-2][Cl])n(CC)c2ccccc21 | cell growth or viability | crystal violet | – | 96 h | – | 8.8 µM
O=C(COc1ccccc1C1=Nn2c(nnc2-c2ccccc2)SC1)NCCCNC(=O)COc1ccccc1C1=Nn2c(nnc2-c2ccccc2)SC1 | cell growth or viability | MTT | – | – | – | 8.01 µM
CC(=O)OC[C@H]1O[C@@H]([S-])[C@H](OC(C)=O)[C@@H](OC(C)=O)[C@@H]1OC(C)=O.CCP(CC)CC.[Au+] | cell growth or viability | crystal violet | – | 96 h | – | 1.2 µM
O=C(/C=C/c1ccc(O)cc1)CC(=O)/C=C/c1ccc(O)cc1 | cell growth or viability | MTT | – | 48 h | – | 12.1 µg/mL
Cc1ccc2ncn(Cc3cn(Cc4ccc(C(=O)NO)cc4)nn3)c(=O)c2c1 | cell growth or viability | MTT | – | 48 h | – | 46.5 µM
O=c1[nH]nc(O)c2c(-c3cccc(Br)c3)c3n(c12)CCn1cccc1-3 | cell growth or viability | MTT | – | 48 h | – | 62 µM
COc1ccc(N2CCN(CC(=O)Nc3ccc(C(=O)C=Cc4cc(OC)c(OC)c(OC)c4)cc3)CC2)cc1 | cell growth or viability | MTT | – | – | – | 15.5 µM
Cc1nnc2n1N=C(c1ccccc1OCC(=O)NCCNC(=O)COc1ccccc1C1=Nn3c(C)nnc3SC1)CS2 | cell viability | MTT | – | – | – | 0.41 µM
O=C(/C=C/c1ccc(Cn2cc(Cn3cnc4ccc(Cl)cc4c3=O)nn2)cc1)NO | cell growth or viability | MTT | – | 48 h | – | 4.31 µM
Cc1nnc2n1N=C(c1ccccc1OCC(=O)NCCCNC(=O)COc1ccccc1C1=Nn3c(C)nnc3SC1)CS2 | cell growth or viability | MTT | – | – | – | 0.12 µM
CC(=O)OC[C@@H]1O[C@H](n2cc(Cn3ccc4nc(-c5ccc6c(c5)OCO6)cc(=O)n43)nn2)[C@@H](OC(C)=O)[C@H](OC(C)=O)[C@H]1OC(C)=O (stereo in doubt) | cell growth or viability | MTT | – | 72 h | – | 39.5 µM
O=C(/C=C/c1ccc(Cn2cc(Cn3cnc4ccc(Br)cc4c3=O)nn2)cc1)NO | cytotoxicity | MTT | – | 48 h | – | 8.41 ± 1.29 µM
O=c1[nH]nc(O)c2c(-c3ccc(Cl)cc3)c3n(c12)CCn1cccc1-3 | cell growth or viability | MTT | – | 48 h | – | 53.3 µM
COc1ccc(C(=O)N[C@H](C(=O)Nc2ccc(C(=O)NO)cc2)c2ccccc2)cc1 | cell growth or viability | MTT | – | 48 h | – | 4.65 µM
COC(=O)c1c(-c2ccc([N+](=O)[O-])cc2)c2n(c1C(=O)OC)CCn1cccc1-2 | cell growth or viability | MTT | – | 48 h | – | 78.9 µM
O=C(COc1ccc(C2=Nn3c(nnc3-c3ccccc3)SC2)cc1)NCCNC(=O)COc1ccc(C2=Nn3c(nnc3-c3ccccc3)SC2)cc1 | cell growth or viability | MTT | – | – | – | 31.7 µM

Some of these lines once more:
Structure (SMILES) | observed | method | measured | time | notes | IC50
O=C(/C=C/c1ccc(O)cc1)CC(=O)/C=C/c1ccc(O)cc1 | cell growth or viability | MTT | – | 48 h | – | 12.1 µg/mL
CCn1[c](=[Au-2][Cl])n(CC)c2ccccc21 | cell growth or viability | crystal violet | – | 96 h | – | 8.8 µM
O=C(/C=C/c1ccc(Cn2cc(Cn3cnc4ccc(Cl)cc4c3=O)nn2)cc1)NO | cell growth or viability | MTT | – | 48 h | – | 4.31 µM
Cc1ccc2ncn(Cc3cn(Cc4ccc(C(=O)NO)cc4)nn3)c(=O)c2c1 | cell growth or viability | MTT | – | 48 h | – | 46.5 µM
